Published values of several laboratories.
Each numbered part is a random draw from the data of one study; scales do not carry over between parts. Values joined by “and” are separate records of one study, mostly repeats; a detail may differ.
Chain of UniProt Q99558 (whole entry, looked up): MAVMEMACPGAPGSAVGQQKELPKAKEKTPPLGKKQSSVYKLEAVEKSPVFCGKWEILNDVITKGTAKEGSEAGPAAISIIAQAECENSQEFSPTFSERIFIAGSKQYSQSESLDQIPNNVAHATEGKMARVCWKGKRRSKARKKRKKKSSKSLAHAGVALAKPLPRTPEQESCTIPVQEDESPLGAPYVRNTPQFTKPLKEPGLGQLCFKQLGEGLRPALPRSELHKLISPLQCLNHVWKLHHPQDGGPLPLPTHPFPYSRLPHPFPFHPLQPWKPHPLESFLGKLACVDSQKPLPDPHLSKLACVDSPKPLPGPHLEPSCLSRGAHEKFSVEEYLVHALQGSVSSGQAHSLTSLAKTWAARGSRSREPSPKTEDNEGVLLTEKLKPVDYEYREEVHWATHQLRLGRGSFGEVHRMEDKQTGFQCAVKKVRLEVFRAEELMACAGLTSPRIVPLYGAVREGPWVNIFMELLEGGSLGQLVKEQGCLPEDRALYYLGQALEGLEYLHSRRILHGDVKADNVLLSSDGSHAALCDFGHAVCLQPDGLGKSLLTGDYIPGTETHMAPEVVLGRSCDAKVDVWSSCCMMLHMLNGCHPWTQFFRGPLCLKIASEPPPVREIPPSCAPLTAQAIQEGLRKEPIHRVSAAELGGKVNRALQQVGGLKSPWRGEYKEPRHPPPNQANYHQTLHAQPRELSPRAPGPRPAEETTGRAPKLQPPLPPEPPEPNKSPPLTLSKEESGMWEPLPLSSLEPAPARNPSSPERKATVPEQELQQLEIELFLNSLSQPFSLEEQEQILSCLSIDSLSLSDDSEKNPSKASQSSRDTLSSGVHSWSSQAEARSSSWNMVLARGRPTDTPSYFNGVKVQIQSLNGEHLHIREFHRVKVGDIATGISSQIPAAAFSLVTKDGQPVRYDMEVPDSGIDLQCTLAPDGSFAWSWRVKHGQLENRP
Chain of UniProt P36507 (whole entry, looked up): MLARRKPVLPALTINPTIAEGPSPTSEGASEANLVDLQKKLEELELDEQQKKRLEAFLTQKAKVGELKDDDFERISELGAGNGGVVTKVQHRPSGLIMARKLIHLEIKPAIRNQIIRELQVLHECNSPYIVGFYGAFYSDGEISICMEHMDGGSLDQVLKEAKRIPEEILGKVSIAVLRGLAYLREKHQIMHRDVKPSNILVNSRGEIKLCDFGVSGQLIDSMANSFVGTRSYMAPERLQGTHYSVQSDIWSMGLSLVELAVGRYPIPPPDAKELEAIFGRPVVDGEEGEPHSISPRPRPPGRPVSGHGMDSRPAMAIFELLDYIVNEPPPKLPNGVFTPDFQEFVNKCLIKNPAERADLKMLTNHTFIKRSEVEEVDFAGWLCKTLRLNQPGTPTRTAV
Chain of UniProt P29320 (whole entry, looked up): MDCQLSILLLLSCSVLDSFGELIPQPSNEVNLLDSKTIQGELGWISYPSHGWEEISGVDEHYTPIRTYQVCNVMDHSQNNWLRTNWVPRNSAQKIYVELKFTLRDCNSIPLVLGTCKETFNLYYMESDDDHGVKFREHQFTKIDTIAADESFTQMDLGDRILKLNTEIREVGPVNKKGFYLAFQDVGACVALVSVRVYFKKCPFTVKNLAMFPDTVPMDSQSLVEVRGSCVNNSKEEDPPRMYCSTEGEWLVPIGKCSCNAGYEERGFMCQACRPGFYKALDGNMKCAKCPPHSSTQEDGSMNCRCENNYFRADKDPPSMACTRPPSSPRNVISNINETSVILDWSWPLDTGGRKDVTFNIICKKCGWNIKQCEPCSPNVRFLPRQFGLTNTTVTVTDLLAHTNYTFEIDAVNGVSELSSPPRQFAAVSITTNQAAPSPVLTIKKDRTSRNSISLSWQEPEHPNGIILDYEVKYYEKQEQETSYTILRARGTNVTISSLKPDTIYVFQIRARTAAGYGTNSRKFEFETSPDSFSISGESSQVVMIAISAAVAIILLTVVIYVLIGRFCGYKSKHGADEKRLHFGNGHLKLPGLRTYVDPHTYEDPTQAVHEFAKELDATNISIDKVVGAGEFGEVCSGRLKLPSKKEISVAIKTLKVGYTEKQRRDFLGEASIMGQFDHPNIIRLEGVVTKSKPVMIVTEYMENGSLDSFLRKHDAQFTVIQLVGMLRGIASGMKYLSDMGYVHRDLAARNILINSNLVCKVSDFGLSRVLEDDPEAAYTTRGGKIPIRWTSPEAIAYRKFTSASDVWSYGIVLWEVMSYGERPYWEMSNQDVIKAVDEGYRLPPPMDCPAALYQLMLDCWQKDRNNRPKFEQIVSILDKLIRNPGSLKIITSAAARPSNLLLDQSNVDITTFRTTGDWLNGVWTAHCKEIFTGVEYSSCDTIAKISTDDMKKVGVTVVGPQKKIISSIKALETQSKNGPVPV
Chain of UniProt Q9UKE5 (whole entry, looked up): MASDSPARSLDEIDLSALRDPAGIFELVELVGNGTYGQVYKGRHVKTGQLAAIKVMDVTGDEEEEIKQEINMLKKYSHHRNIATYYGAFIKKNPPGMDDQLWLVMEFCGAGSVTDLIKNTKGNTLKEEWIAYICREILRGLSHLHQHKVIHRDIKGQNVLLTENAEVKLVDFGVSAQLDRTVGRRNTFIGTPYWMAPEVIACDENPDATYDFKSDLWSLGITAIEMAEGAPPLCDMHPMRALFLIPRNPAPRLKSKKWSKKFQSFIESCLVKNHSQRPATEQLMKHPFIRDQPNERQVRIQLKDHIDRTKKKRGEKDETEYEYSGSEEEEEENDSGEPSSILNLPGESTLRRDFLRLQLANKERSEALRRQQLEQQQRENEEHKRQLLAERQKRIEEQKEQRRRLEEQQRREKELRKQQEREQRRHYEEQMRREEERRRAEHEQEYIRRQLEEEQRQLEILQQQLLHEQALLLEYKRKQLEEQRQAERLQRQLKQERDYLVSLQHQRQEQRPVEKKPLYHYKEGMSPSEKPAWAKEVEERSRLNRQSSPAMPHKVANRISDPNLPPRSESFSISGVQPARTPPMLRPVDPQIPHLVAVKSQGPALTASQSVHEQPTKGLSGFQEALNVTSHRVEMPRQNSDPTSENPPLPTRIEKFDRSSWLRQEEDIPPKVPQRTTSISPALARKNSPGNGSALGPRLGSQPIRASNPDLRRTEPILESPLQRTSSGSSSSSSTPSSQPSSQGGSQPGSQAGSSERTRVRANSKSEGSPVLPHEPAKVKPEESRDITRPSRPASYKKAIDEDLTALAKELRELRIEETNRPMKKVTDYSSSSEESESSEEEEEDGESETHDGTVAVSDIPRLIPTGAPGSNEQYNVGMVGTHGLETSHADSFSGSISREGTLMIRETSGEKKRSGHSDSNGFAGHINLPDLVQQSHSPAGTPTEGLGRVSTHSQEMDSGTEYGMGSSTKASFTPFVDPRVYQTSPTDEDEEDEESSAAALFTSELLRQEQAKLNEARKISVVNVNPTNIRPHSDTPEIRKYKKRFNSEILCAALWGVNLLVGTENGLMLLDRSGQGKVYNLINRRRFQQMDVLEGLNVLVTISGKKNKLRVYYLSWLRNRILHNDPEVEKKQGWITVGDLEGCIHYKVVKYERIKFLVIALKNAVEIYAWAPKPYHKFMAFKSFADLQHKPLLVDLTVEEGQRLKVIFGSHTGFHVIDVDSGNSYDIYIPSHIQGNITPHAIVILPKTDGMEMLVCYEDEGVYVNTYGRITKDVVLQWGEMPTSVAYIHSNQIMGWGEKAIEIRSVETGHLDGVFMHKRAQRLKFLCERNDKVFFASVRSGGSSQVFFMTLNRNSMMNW
Chain of UniProt P78368 (whole entry, looked up): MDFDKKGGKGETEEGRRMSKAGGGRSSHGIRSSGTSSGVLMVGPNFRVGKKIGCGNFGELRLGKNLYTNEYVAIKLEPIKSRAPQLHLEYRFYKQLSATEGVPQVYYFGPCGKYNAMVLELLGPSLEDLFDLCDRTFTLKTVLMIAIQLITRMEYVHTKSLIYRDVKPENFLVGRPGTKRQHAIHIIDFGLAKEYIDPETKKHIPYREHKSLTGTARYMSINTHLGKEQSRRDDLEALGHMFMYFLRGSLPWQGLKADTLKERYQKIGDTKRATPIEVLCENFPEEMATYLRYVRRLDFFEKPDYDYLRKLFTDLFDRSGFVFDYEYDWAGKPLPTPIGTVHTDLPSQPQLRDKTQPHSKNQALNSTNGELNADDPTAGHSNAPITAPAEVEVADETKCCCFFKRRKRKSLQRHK
Chain of UniProt Q9HC98 (whole entry, looked up): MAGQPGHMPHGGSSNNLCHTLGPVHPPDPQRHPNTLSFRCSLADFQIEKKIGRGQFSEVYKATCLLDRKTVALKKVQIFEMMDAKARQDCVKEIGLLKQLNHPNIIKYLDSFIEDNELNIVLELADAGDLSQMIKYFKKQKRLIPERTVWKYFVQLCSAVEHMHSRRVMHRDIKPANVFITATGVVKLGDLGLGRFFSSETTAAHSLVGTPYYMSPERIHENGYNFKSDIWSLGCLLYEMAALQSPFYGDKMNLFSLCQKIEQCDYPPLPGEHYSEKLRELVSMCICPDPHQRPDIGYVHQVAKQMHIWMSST
Chain of UniProt P27361 (whole entry, looked up): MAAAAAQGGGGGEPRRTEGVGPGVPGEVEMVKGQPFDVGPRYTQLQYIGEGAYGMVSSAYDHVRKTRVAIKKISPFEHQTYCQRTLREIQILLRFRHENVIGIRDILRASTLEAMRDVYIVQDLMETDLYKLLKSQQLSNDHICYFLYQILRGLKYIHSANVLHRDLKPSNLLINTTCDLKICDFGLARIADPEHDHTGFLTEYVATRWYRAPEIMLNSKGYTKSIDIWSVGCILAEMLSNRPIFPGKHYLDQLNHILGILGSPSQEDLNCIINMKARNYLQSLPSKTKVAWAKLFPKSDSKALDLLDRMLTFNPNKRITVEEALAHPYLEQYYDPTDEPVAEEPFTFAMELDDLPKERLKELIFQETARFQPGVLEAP

Sample 1
Cell line: mouse MPNST tumor cells
Technique: high-content nuclear imaging
Item: cell number
Concentration: 10 µM
Time: 12 h
Notes: mean of 2 replicates
Reference: plate mean
Direction: higher = more cells
Measurement: nuclei count
CC(C)CNc1ccnc(NCc2csc(-c3ccccc3)n2)n1: 0.62 z-score
CC(=O)c1ccc(S(=O)(=O)NC(=O)NC2CCCCC2)cc1: -0.257 z-score and 0.435 z-score
CCN(CC)C(=O)N1CCN(C)CC1: 1.6 z-score and 0.358 z-score
CC(C)(C)OC(=O)CN(Cc1ccc(Cl)cc1)Cc1ccc([N+](=O)[O-])s1: 0.746 z-score
Clc1ccc2c(c1)C(N1CCNCC1)=Nc1ccccc1O2: -2.72 z-score and -3.57 z-score

Sample 2
Compound: c1ccc(-c2[nH]ncc2-c2ccnc3ccccc23)nc1
Effect on: enzyme activity
Action: inhibitor
Concentration: 0.5 µM
Reference: control
Measurement: remaining activity
ULK3 (Homo sapiens, UniProt Q6PHR2): 85.3%
FGFR3 (Homo sapiens, UniProt P22607): 97.4%
ARAF (Homo sapiens, UniProt P10398): 91.5%
LCK (Homo sapiens, UniProt P06239): 91.7%
FRK (Homo sapiens, UniProt P42685): 92.8%
ULK2 (Homo sapiens, UniProt Q8IYT8): 95.6%
GSK3B (Homo sapiens, UniProt P49841): 95.2%
EPHA3 (Homo sapiens, UniProt P29320): 99.3%
MAP3K14 (Homo sapiens, UniProt Q99558): 116%
JAK3 (Homo sapiens, UniProt P52333): 92.7%
TAOK2 (Homo sapiens, UniProt Q9UL54): 96.8%
ACVR1B (Homo sapiens, UniProt P36896): 43.2%
TEK (Homo sapiens, UniProt Q02763): 98.8%
GRK7 (Homo sapiens, UniProt Q8WTQ7): 102%
TBK1 (Homo sapiens, UniProt Q9UHD2): 92.6%
ABL2 (Homo sapiens, UniProt P42684): 67.8%
MST1R (Homo sapiens, UniProt Q04912): 99.9%
MERTK (Homo sapiens, UniProt Q12866): 92.6%
MAPKAPK2 (Homo sapiens, UniProt P49137): 100%
NEK6 (Homo sapiens, UniProt Q9HC98): 106%
FGFR1 (Homo sapiens, UniProt P11362): 94.2%
MAP2K2 (Homo sapiens, UniProt P36507): 106%
CSNK1G2 (Homo sapiens, UniProt P78368): 103%
CSNK1G3 (Homo sapiens, UniProt Q9Y6M4): 96%
MAPK3 (Homo sapiens, UniProt P27361): 101%

Sample 3
Organism: Sarcocystis neurona
Effect on: parasite growth
Concentration: 10 µM
Time: 96 h
Notes: secondary screen
Measurement: inhibition
OC(Cn1cncn1)(Cn1cncn1)c1ccc(F)cc1F: -7.3%
COC(=O)C1=C(C)NC(C)=C(C(=O)OCC(C)C)C1c1ccccc1[N+](=O)[O-] (centres unmarked): -29.9%
CC(=O)S[C@@H]1CC2=CC(=O)CC[C@]2(C)[C@H]2CC[C@@]3(C)[C@@H](CC[C@@]34CCC(=O)O4)[C@H]12: -11.8%
O=C(CCNNC(=O)c1ccncc1)NCc1ccccc1: -14.2%
Cc1cccc(C)c1NC(=O)C1CCCCN1C (centres unmarked): -10.5%

Sample 4
SMILES: CO[C@H]1CC[C@H](CNc2ccc(S(=O)(=O)NC(=O)c3ccc(N4CCN(CC5=C(c6ccc(Cl)cc6)CC(C)(C)CC5)CC4)cc3Oc3cnc4[nH]ccc4c3)cc2[N+](=O)[O-])CC1
Effect on: cell-free assay
Technique: competition with immobilised ligand
Concentration: 1 µM
Measurement: remaining binding
MAP2K2 (Homo sapiens, UniProt P36507): 100%
KIT (Homo sapiens, UniProt P10721): 91%
SRMS (Homo sapiens, UniProt Q9H3Y6): 89%
DDR1 (Homo sapiens, UniProt Q08345): 99%
Tyrosine-protein kinase ABL1, non-phosphorylated (ABL1, Homo sapiens, UniProt P00519, H396P): 92%
HIPK1 (Homo sapiens, UniProt Q86Z02): 61%
MAP3K14 (Homo sapiens, UniProt Q99558): 100%
STK38 (Homo sapiens, UniProt Q15208): 98%
Tyrosine-protein kinase ABL1, phosphorylated (ABL1, Homo sapiens, UniProt P00519, Q252H): 100%
TNIK (Homo sapiens, UniProt Q9UKE5): 100%

Sample 5
SMILES: CC(C)C[C@@H]1NC(=O)[C@@H](N(C)C(=O)[C@H](CC2CCC2)NC(=O)[C@@H]2C[C@@H](F)CN2C(=O)C2(C(F)(F)F)CC(F)(F)C2)CCCCNC(=O)C2(CC2)NC(=O)[C@H](Cc2cc(Cl)ccc2Cl)N(C)C1=O
Cell line: human CD34+ HSPC
Technique: EdU flow cytometry
Time: 24 h
Measurement: S-phase cells
1000 nM: 44.9% and 45.3%
3000 nM: 43.1% and 38.4%
10 nM: 43.9% and 46.4%

Sample 6
Cell line: A-375
Concentration: 100 µM
Time: 18 h
Measurement: viability
OC[C@@H](O)[C@@H](O[C@@H]1O[C@H](CO)[C@H](O)[C@H](O)[C@H]1O)[C@H](O)[C@@H](O)CO: 96.4%
C[C@@H](O)[C@H]1C(=O)N2C(C(=O)O)=C(S[C@@H]3CN[C@H](CNS(N)(=O)=O)C3)[C@H](C)[C@H]12: 105%
NS(=O)(=O)c1cc(C2(O)NC(=O)c3ccccc32)ccc1Cl (centres unmarked): 87.5%
CC(=O)Nc1c(I)c(NC(C)=O)c(I)c(C(=O)O)c1I: 89.8%
CC(=O)O[C@H]1C[C@@H]2CC[C@@H]3[C@H](CC[C@@]4(C)[C@H]3C[C@H]([N+]3(C)CCCCC3)[C@@H]4OC(C)=O)[C@@]2(C)C[C@@H]1N1CCCCC1: 80.9%
NNc1nnc(NN)c2ccccc12: 64.3%
CN(C)CCC=C1c2ccccc2CCc2ccccc21: 7.92%
COc1cc2c(cc1OC)[C@@H]1Cc3ccc(OC)c(OC)c3CN1CC2: 98.6%

Excerpt of the above (sample 2):
ACVR1B (Homo sapiens, UniProt P36896): 43.2%
TEK (Homo sapiens, UniProt Q02763): 98.8%
GRK7 (Homo sapiens, UniProt Q8WTQ7): 102%
TBK1 (Homo sapiens, UniProt Q9UHD2): 92.6%
ABL2 (Homo sapiens, UniProt P42684): 67.8%
MST1R (Homo sapiens, UniProt Q04912): 99.9%
MERTK (Homo sapiens, UniProt Q12866): 92.6%
MAPKAPK2 (Homo sapiens, UniProt P49137): 100%
NEK6 (Homo sapiens, UniProt Q9HC98): 106%
